Experimental data from different studies.
Every numbered part comes from another study and shows a few of its results, in no order.

Sample 1
Target: Hepatocyte nuclear factor 3-alpha (Foxa1, Mus musculus, UniProt P35582, residues 1-468, full length assumed)
Method: EMSA with sequencing
Form: double-stranded DNA, one strand shown
Sample: in vitro
Tested at: 10 and 20 nM
Setting: whole designed probe, mean of two concentrations, ends assumed
Relative to: negative control set to 0
Direction: higher = stronger binding
Constant ends, left off below: GTGAGCGGTGCCCATTGATGGGGAAC … TTTCACTGGGATCGTGGGGAC
Construct (chain): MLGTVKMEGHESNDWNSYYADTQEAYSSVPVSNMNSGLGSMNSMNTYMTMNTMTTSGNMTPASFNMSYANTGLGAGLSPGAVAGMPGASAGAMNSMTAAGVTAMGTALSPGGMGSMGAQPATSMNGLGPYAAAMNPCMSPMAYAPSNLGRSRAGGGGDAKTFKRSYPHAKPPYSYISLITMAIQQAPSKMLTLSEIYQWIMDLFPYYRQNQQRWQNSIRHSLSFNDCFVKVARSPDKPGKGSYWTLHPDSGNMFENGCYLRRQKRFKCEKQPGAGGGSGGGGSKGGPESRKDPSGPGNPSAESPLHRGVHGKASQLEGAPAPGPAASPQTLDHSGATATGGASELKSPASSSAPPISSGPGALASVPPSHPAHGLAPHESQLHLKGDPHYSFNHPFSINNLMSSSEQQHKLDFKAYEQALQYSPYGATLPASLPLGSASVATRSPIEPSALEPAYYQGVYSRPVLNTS
Under “normalised bound fraction”, `TAAGTTTGTCTTTTCTAATGAAGAAAAAAAAGAGTTTGAGAAAGGAACGATACCAATCTATGATGATCCATCAGCATCGCATCCCAGCCTGTGTAAACATGAAGTGAAAGGGACAGGGAGAAGCCAGGGCCAGAAAGTGCATTTAAACCAGATGGTTCAGTCACAGCGCTGGCCTTAAGTGTCTTACCCAGCA` is recorded as 0.394 ratio.
`AAATTCTGCAATTACATCACCTCATCTGCACCTGATGAATAAAAATAAATTATTTCAAAGTTTTAAAAAGTGCAACAATGATTTGCAAGACAGAGTAATCTTACAGTAAAGGTTTTAATTCCTGAGACTTAAGTTGGATAGGTCTAGATTTTCATCAAGGAAAACAAAAGTATGATGTTAAATTCAAATTCTA`: “normalised bound fraction” -0.0124 ratio.
`AAACCAAGCTGACATCACAGTTCAGTACTTTCAAAACTTAAGTATTTGATGTCTGAGGTCAAGTACACAAGTACACACTCTGCCACCTCCTGTGCAAACAAATTATGGCTGCACTGATCTAATGAGTGCAGGCTGGCCTGGGACATAGGTAAACAGATGTGGGCCAAGTAGCCTGGCCCCTGCTGATAATGCT`: “normalised bound fraction” 0.47 ratio.
Under “normalised bound fraction”, `GGAAGCTCTTTGTACCCCTTTTGCAACTTTTCAGTAAATTTGCAGTTATTTCAAAATATAAAAAGTTAAACATTTGCTAGAAAAGTTTCTAAATGTTTACTCTCGGTTTCTGCTCAAGGGTGGGTGGCTTATGGTTCCCGCAGAGGCATTCCAAGTTACACGATCTGACAAGACATGGAGCGACCTGAGTTTG` is recorded as 0.176 ratio.
Under “normalised bound fraction”, `AAAGTGAGACATGCTTTATGCTTTAAGAGGGCACACATTGGAGTGTGATAAGCTTCAACTTGGGGAGAATGAGCTCTACTCTGCTCTATTTCTGTTTACTTTGTACTAAATAATTAGACAATGGCCAACATGGTCTGAAAAAAGTCAAGTAAAGAGATATCTTTCTAGCCTGAAACAAAATATTCTTAGATTT` is recorded as 0.484 ratio.

Sample 2
Target: Histone acetyltransferase KAT6A, both winged helices, GST fusion (KAT6A, Homo sapiens, UniProt Q92794, residues 1-181)
Method: protein binding microarray
Form: double-stranded DNA, one strand shown
Sample: in vitro
Tested at: not given
Setting: 8-mer, flanks averaged, mean of 2 arrays, mostly near background
Relative to: not given
Direction: higher = stronger binding
Residues (chain): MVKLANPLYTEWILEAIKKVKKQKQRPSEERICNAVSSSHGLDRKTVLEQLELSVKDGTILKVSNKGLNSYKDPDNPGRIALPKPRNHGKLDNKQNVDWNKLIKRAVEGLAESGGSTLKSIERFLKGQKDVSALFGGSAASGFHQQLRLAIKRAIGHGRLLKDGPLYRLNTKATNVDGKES
The E-score of `AGCTGACT` is reported as -0.109.
`ATCCCTTC` gave an E-score of -0.158.
`AGTTATTC` has an E-score of -0.0523.
`TGTTCGAA` has an E-score of 0.0129.
With `GAGTACCC` the E-score was 0.00344.
The E-score of `CCGGATTA` is reported as 0.0465.
For `AAGATCTA`, the E-score was -0.0598.
For `ACGATACC`, the E-score was -0.00581.
For `AGGCCTAC`, the E-score was -0.0525.
The E-score of `ACGTGAAG` is reported as 0.0251.
`GCCTAATA` has an E-score of -0.0018.
The E-score of `CCGAATAC` is reported as 0.171.

Sample 3
Target: Sal-like protein 4, full length isoform B (SALL4, Homo sapiens, UniProt Q9UJQ4-2, residues 1-616)
Method: universal PBM
Form: double-stranded DNA, one strand shown
Sample: in vitro
Tested at: not given
Setting: 8-mer, flanks averaged, mean of replicates
Direction: higher = stronger binding
`CCAAAACG` has an E-score of -0.0564.
`AGGGTTCC` has an E-score of -0.169.
The E-score of `GAGTGCCC` is reported as -0.368.
The E-score of `ATCTCCGC` is reported as -0.135.
`AGTTTCGC` has an E-score of -0.0628.
For `GTCTGTTA`, the E-score was 0.161.
`CTATACAA` has an E-score of 0.285.
For `CATGGCTA`, the E-score was 0.095.
With `ATACTTTC` the E-score was 0.213.
The E-score of `CAATCCGA` is reported as 0.0448.
The E-score of `AAACTGTT` is reported as 0.211.
`CATGAAAG` gave an E-score of 0.0892.

Other studies, line by line
`PhoQ, residues 284 288 289 292 302 303 WVSSAF` has a fold induction of 16.8 (PhoP, residues 12 14 15 18 19 LQHIR (Escherichia coli, UniProt P23836); Sort-seq, measured: YFP reporter; E. coli; PhoQ-PhoP variant library, with: 10 µM Mg2+; relative to: high Mg2+ state, higher = stronger signaling).

Repeated from above (sample 2):
The E-score of `CCGGATTA` is reported as 0.0465.
For `AAGATCTA`, the E-score was -0.0598.
For `ACGATACC`, the E-score was -0.00581.
For `AGGCCTAC`, the E-score was -0.0525.
